Measurements pooled from the literature.
Protocols differ between the studies behind these lines. Several values in a cell are separate wells, animals, samples, runs or records. ± gives the spread as reported.

Substance | cell line | test | conditions | CC50
CC(CN1c2ccccc2Sc2ccccc21)N(C)C (stereo not shown) | human cells |  | concentration not given, 2 days | > 20 µM
CCC(C)[C@H](NC(=O)c1cc(Cl)ccc1O)C(=O)Nc1ccc([N+](=O)[O-])cc1Cl (stereo partly shown) | A549 |  |  | 5.2 µM
nanaomycin | HepG2 | cell viability | 24 h, 37 °C | 0.514 µM
CC(C)C[C@H](NC(=O)c1cc(Cl)ccc1O)C(=O)Nc1ccc([N+](=O)[O-])cc1Cl | A549 |  |  | 8.03 µM
COc1cc(Nc2c(C#N)cnc3cc(OCCCN4CCN(C)CC4)c(OC)cc23)c(Cl)cc1Cl | human cells |  | concentration not given, 2 days | 17.1 µM
CCC(CC)COC(=O)[C@H](C)N[P@](=O)(OC[C@H]1O[C@@](C#N)(c2ccc3c(N)ncnn23)[C@H](O)[C@@H]1O)Oc1ccccc1 | Huh-7 |  | 7 days, uninfected, CPE assay format | 15 µM
CCC(C)n1ncn(-c2ccc(N3CCN(c4ccc(OCC5COC(Cn6cncn6)(c6ccc(Cl)cc6Cl)O5)cc4)CC3)cc2)c1=O (stereo not shown) | African green monkey cells |  | 5 days | > 100 µM
CN(C)CCCN1c2ccccc2CCc2ccc(Cl)cc21 | Vero E6, HeLa, HEK293T, Huh7.5 | nuclei count | 16 h, mean of four cell lines | > 50 µM
O=C(Nc1ccc(F)c(F)c1)c1cc(Cl)ccc1O | A549 |  |  | 3.76 µM
CC[C@H](C)[C@H](NC(=O)[C@H](CCCCN)NC(=O)[C@H](CCCCN)NC(=O)[C@H](Cc1ccc(O)cc1)NC(=O)[C@H](CC(C)C)NC(=O)[C@@H]1CCCN1C(=O)[C@H](C)NC(=O)CNC(=O)CNC(=O)[C@H](CO)NC(=O)CNC(=O)CNC(=O)[C@H](CO)NC(=O)[C@H](CCC(=O)O)NC(=O)[C@H](CC(C)C)NC(=O)[C@H](CC(C)C)NC(=O)[C@H](CCCCN)NC(=O)[C@H](CCCCN)NC(=O)[C@@H](NC(=O)[C@@H](NC(=O)[C@H](CCCCN)NC(=O)[C@H](CCCCN)NC(=O)[C@H](Cc1ccc(O)cc1)NC(=O)[C@H](CC(C)C)NC(=O)[C@@H]1CCCN1C(=O)[C@H](C)NC(=O)[C@H](CCC(N)=O)NC(=O)[C@@H](N)CC(C)C)[C@@H](C)CC)[C@@H](C)CC)C(=O)N[C@H](C(=O)N[C@@H](CCCCN)C(=O)N[C@@H](CCCCN)C(=O)N[C@@H](CC(C)C)C(=O)N[C@@H](CC(C)C)C(=O)N[C@@H](CCC(=O)O)C(=O)N[C@@H](CO)C(N)=O)[C@@H](C)CC | K562 | resazurin | 24 h | 4.4 ± 0.1 µM
O=C(Nc1ccc([N+](=O)[O-])cc1Cl)c1cccc([N+](=O)[O-])c1O | A549 |  |  | 13.2 µM
CN(C)CCCN1c2ccccc2Sc2ccc(Cl)cc21 | HepaRG | cytotoxicity | 48 and 72 h | 10 to 50 µM
CN(C)c1ccc(Cn2c(=O)n(Cc3ccc(C(=O)NCC4COC4)cc3)c(=O)c3ccccc32)cc1 | HEp-2 |  |  | 44.7 ± 7.2 µM
O=C(Nc1cc(F)cc(C(F)(F)F)c1)c1ccc(Cl)cc1O | A549 |  |  | 4.18 µM
CC[C@H](C)[C@H](NC(=O)[C@H](CCCCN)NC(=O)[C@H](CCCCN)NC(=O)[C@H](Cc1ccc(O)cc1)NC(=O)[C@H](CC(C)C)NC(=O)[C@@H]1CCCN1C(=O)[C@H](C)N)C(=O)N[C@H](C(=O)N[C@@H](CCCCN)C(=O)N[C@@H](CCCCN)C(=O)N[C@@H](CC(C)C)C(=O)N[C@@H](CC(C)C)C(=O)N[C@@H](CCC(=O)O)C(=O)N[C@@H](CO)C(N)=O)[C@@H](C)CC | K562 | resazurin | 24 h | > 32 µM
OCCN1CCN(CCCN2c3ccccc3Sc3ccc(Cl)cc32)CC1 | human cells |  | concentration not given, 2 (unit not given) | 18.3 µM

Substance | cell line | test | conditions | CC50
CC[C@H](C)[C@H](NC(=O)[C@H](CCCCN)NC(=O)[C@H](CCCCN)NC(=O)[C@H](Cc1ccc(O)cc1)NC(=O)[C@H](CC(C)C)NC(=O)[C@@H]1CCCN1C(=O)[C@H](C)NC(=O)CNC(=O)CNC(=O)[C@H](CO)NC(=O)CNC(=O)CNC(=O)[C@H](CO)NC(=O)[C@@H](NC(=O)[C@H](CC(C)C)NC(=O)[C@H](CC(C)C)NC(=O)[C@H](C)NC(=O)[C@H](Cc1c[nH]c2ccccc12)NC(=O)[C@H](Cc1ccc(O)cc1)NC(=O)[C@H](Cc1c[nH]cn1)NC(=O)[C@H](CCC(=O)O)NC(=O)[C@H](Cc1ccccc1)NC(=O)[C@@H](NC(=O)[C@H](CC(C)C)NC(=O)[C@@H]1CCCN1C(=O)[C@H](C)NC(=O)[C@H](CCC(N)=O)NC(=O)[C@@H](N)CC(C)C)[C@@H](C)O)[C@@H](C)O)C(=O)N[C@H](C(=O)N[C@@H](CCCCN)C(=O)N[C@@H](CCCCN)C(=O)N[C@@H](CC(C)C)C(=O)N[C@@H](CC(C)C)C(=O)N[C@@H](CCC(=O)O)C(=O)N[C@@H](CO)C(N)=O)[C@@H](C)CC | MDA-MB-231 | resazurin | 24 h | > 32 µM
O=C(O[C@H]1CN2CCC1CC2)N1CCc2ccccc2[C@@H]1c1ccccc1 | human cells |  | concentration not given, 2 (unit not given) | > 20 µM
CC(C)[C@H](NC(=O)c1cc(Cl)ccc1O)C(=O)Nc1ccc(C(F)(F)F)cc1Cl | A549 |  |  | 8.34 µM
C=C1C(=O)O[C@H]2[C@H]1CCC(COC(=O)c1ccc(C(F)(F)F)cc1)=C1CC[C@@](C)(O)[C@@H]12 | M9-ENL1 | cell viability, MTT | 24 h | 10 ± 2 µM
CN(C(=O)C(Cc1ccccc1)NC(=O)CN1C(=O)NC2(CCCCC2)C1=O)c1ccc(Cl)cc1 (stereo not shown) | TZM-GFP | XTT | 72 h | > 100 µM
CCN(CC)CCNc1ccc(CO)c2sc3ccccc3c(=O)c12 | Vero E6, HeLa, HEK293T, Huh7.5 | nuclei count | 16 h, mean of four cell lines | 11.3 ± 2.73 µM
NC(=O)CCNC(=O)c1ccccc1S | human monocytes/macrophages |  | 7 days | > 2000 µM
CC[C@H](C)[C@@H]1NC(=O)[C@H](CO)NC(=O)[C@H](CCC(=O)O)NC(=O)[C@H](CC(C)C)NC(=O)[C@H](CC(C)C)NC(=O)[C@H](CCCCN)NC(=O)[C@H](CCCCN)NC(=O)[C@H]([C@@H](C)CC)NC(=O)[C@H]([C@@H](C)CC)NC(=O)[C@H](CCCCN)NC(=O)[C@H](CCCCN)NC(=O)[C@H](Cc2ccc(O)cc2)NC(=O)[C@H](CC(C)C)NC(=O)[C@@H]2CCCN2C(=O)CNC(=O)CNC(=O)[C@@H](N)CSSC[C@@H](C(N)=O)NC(=O)CNC(=O)CNC(=O)[C@H]([C@@H](C)O)NC(=O)[C@H](CC(C)C)NC(=O)[C@H](CCC(N)=O)NC(=O)[C@H](C)NC(=O)[C@H](Cc2c[nH]c3ccccc23)NC(=O)[C@H](Cc2ccc(O)cc2)NC(=O)[C@H](Cc2c[nH]cn2)NC(=O)[C@H](CCC(=O)O)NC(=O)[C@H](Cc2ccccc2)NC(=O)[C@H]([C@@H](C)O)NC(=O)[C@H](CC(C)C)NC(=O)CNC(=O)CNC(=O)[C@H](CO)NC(=O)CNC(=O)CNC(=O)[C@H](CO)NC(=O)CNC(=O)CNC(=O)[C@H](CCCCN)NC(=O)[C@H](CCCCN)NC(=O)[C@H]([C@@H](C)CC)NC1=O | MDA-MB-231 | resazurin | 24 h | 29 ± 1.9 µM
C[C@H]1CCC[C@H](O)CCCCCc2cc(O)cc(O)c2C(=O)O1 | BeWo cells |  | 24 h | 77.4 ± 6.4 µM
O=C(Nc1cc(C(F)(F)F)cc(C(F)(F)F)c1)c1cc(Cl)ccc1O | A549 |  |  | 1.81 µM
NC(=O)c1nc(F)c[nH]c1=O | Vero 76 | cytotoxicity |  | 5860 µM and 3730 µM and > 4860 µM
C=C1C(=O)O[C@@H]2[C@H]1CC[C@H](C)[C@@]1(O)C=CC(=O)[C@@]21C | BALB/c mouse splenocytes | propidium iodide flow cytometry | 48 h, 10% fetal calf serum | 4.4 ± 2.93 µM
COc1ccc(N(C)C(=O)C(Cc2ccccc2)NC(=O)CN2C(=O)NC3(CCCCC3)C2=O)cc1 (stereo not shown) | TZM-GFP | XTT | 72 h | > 100 µM
CC(CN(C)C)CN1c2ccccc2Sc2ccccc21 (stereo not shown) | human cells |  | concentration not given, 2 (unit not given) | 13.8 µM
C/C(O)=C(\C#N)C(=O)Nc1ccc(C(F)(F)F)cc1 | Huh-7 | CPE | 7 days | > 100 µM
